Experimental data pooled from the literature.
Numbered parts are unrelated; each lists some results of a single study.
UniProt P00519, sequence (whole entry, unmodified, looked up): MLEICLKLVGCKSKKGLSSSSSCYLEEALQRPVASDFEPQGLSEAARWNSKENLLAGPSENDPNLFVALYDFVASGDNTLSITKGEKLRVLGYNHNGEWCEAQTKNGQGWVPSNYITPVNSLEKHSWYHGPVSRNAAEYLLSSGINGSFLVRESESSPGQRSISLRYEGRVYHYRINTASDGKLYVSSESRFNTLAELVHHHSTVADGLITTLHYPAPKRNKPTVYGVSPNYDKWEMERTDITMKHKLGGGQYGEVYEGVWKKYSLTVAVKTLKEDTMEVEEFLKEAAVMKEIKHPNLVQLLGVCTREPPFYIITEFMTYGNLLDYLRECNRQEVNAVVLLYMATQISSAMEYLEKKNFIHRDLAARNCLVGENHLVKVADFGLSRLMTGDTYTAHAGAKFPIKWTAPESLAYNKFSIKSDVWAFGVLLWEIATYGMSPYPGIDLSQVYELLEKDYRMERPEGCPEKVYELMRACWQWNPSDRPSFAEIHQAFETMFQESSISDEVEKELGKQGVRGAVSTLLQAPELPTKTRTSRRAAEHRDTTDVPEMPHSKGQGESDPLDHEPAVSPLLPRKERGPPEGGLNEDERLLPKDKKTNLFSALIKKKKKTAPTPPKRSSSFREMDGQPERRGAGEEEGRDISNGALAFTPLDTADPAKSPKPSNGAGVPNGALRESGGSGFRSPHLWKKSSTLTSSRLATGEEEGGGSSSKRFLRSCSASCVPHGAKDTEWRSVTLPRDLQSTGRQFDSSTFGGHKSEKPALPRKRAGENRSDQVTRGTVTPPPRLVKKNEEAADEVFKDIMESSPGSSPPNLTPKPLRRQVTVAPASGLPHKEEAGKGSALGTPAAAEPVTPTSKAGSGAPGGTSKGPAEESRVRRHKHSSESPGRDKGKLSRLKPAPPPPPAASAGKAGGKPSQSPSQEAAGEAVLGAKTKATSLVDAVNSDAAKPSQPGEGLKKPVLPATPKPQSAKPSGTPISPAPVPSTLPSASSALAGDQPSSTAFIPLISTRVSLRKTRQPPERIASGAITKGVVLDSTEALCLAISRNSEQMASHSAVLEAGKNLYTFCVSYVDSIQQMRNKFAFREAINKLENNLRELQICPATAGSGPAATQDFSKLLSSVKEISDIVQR
UniProt P15056, sequence (whole entry, unmodified, looked up): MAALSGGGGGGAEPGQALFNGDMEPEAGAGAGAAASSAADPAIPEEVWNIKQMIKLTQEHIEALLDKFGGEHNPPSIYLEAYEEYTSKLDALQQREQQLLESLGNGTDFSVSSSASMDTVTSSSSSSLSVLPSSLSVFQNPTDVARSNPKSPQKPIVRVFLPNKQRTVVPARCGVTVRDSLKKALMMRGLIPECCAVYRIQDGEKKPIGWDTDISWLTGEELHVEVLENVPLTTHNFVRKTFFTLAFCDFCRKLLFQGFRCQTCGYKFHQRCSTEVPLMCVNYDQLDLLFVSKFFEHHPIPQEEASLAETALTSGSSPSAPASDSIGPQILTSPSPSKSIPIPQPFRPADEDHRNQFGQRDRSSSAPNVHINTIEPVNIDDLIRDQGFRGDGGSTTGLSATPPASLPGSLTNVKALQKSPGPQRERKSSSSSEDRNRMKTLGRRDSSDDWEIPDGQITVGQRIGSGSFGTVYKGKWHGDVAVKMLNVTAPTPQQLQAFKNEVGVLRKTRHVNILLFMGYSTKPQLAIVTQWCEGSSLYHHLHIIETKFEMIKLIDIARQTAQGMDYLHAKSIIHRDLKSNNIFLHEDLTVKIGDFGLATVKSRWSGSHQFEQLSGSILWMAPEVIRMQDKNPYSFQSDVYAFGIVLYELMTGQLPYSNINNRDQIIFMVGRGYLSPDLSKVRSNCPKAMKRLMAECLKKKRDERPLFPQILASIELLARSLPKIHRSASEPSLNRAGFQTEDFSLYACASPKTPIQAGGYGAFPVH
UniProt Q9NYY3, sequence (whole entry, looked up): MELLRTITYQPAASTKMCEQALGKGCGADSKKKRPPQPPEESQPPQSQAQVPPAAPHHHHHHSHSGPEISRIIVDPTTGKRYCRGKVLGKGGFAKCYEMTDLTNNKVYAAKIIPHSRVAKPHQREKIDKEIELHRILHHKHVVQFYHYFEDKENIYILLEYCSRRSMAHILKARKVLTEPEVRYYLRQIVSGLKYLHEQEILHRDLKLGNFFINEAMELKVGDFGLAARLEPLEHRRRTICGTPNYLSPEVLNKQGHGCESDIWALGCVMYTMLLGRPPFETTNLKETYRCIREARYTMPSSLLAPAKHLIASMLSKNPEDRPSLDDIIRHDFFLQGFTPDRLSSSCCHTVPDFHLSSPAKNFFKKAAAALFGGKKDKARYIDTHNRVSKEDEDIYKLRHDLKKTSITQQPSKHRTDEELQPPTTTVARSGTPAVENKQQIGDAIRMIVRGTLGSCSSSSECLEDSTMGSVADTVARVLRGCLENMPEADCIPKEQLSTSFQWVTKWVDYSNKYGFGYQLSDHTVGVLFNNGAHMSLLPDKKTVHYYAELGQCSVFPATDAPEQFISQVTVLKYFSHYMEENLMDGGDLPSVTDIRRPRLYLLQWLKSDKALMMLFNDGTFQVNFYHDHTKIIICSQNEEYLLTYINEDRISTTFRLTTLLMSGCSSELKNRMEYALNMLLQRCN
UniProt Q13546, sequence (whole entry, looked up): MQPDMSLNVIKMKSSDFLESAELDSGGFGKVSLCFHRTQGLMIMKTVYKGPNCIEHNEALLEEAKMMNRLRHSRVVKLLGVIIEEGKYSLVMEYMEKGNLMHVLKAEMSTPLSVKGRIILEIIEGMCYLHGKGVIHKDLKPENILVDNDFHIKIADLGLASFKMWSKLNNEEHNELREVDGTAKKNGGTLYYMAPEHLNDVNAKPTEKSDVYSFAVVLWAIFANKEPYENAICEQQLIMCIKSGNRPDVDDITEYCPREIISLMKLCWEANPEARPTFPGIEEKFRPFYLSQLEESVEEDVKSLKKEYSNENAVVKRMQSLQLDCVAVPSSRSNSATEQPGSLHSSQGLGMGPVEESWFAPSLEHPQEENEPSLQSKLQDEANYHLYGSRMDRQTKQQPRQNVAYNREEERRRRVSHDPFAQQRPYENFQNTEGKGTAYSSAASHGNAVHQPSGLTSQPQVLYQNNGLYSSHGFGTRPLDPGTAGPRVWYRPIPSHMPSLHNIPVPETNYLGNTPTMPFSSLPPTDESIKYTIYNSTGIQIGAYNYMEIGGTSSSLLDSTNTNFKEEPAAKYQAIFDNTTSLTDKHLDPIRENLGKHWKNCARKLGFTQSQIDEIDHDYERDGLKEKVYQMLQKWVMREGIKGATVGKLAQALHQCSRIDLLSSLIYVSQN
UniProt Q96PN8, sequence (whole entry, looked up): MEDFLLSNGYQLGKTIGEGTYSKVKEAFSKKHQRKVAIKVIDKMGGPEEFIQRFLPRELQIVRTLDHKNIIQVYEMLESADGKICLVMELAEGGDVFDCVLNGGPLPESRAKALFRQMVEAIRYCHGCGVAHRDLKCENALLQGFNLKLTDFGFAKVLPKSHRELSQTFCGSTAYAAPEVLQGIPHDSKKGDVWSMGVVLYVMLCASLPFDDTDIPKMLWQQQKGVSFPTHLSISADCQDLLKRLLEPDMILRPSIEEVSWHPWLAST
UniProt Q13555, sequence (whole entry, looked up): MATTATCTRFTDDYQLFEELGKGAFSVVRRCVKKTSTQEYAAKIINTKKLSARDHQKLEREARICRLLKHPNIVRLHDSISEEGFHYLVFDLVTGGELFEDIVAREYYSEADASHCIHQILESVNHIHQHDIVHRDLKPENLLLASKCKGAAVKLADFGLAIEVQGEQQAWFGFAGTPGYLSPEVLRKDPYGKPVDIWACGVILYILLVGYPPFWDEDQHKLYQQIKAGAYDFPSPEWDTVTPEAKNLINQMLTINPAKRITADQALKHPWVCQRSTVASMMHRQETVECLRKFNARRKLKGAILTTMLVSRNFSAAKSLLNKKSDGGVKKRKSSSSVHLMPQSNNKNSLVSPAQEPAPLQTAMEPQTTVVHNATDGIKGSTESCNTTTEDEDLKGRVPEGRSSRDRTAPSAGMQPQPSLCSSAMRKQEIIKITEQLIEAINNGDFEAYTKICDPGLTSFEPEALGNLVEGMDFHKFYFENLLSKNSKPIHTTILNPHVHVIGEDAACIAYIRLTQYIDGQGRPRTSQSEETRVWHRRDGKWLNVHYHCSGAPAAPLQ
UniProt P22455, sequence (whole entry, looked up): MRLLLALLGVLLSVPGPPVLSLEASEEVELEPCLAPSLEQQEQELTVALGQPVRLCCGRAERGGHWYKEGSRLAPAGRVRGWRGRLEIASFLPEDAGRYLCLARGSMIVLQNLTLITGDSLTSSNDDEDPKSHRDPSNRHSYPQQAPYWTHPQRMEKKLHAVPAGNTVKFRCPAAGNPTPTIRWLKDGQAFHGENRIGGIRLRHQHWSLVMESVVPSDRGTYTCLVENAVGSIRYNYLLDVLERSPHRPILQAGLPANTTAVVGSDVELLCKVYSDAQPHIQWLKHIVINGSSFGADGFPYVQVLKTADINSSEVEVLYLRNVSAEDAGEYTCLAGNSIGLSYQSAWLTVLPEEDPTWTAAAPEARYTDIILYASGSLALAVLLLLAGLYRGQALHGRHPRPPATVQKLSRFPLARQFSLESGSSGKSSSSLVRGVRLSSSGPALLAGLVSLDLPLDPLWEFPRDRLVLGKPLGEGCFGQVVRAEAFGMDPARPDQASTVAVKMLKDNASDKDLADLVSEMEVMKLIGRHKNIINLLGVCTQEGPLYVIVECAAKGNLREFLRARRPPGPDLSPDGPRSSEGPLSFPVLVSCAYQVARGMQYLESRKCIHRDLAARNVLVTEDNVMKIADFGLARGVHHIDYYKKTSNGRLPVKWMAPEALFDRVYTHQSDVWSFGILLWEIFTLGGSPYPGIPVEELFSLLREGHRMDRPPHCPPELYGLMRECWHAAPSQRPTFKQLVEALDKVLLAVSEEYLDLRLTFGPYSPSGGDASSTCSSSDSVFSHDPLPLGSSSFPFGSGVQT

Study 1 — medium: EL4 tumour; dose: dose not given; reference: vehicle
Compound: CC(=O)N[C@@H](Cc1c[nH]c2ccccc12)C(=O)N[C@@H](CCC(=O)C=[N+]=[N-])C(=O)OC(C)C
method	refers to	species	log2 fold change
–	glutamine	mouse, EL4 tumour-bearing	0.57
–	tyrosine	mouse, EL4 tumour-bearing	0.31
metabolomics	cytidine 2'-monophosphate	mouse	1.64

Study 2 — effect on: cell-free assay; method: competition with immobilised ligand; concentration: 1 µM
Structure (SMILES): COc1ccc2c(c1)O[C@@H](c1ccc(OC)c(OC)c1)C[C@H]2NC(=O)C1(c2ccc3c(c2)OC(F)(F)O3)CC1
target	remaining binding
PLK2 (Homo sapiens, UniProt Q9NYY3)	81%
SRPK3 (Homo sapiens, UniProt Q9UPE1)	100%
BRAF (Homo sapiens, UniProt P15056, V600E)	100%
TNK2 (Homo sapiens, UniProt Q07912)	100%
STK16 (Homo sapiens, UniProt O75716)	81%
CAMK2G (Homo sapiens, UniProt Q13555)	96%
eIF-2-alpha kinase GCN2, C-terminal kinase domain (EIF2AK4, Homo sapiens, UniProt Q9P2K8, S808G)	95%
RIPK1 (Homo sapiens, UniProt Q13546)	93%
FGFR4 (Homo sapiens, UniProt P22455)	90%
Tyrosine-protein kinase ABL1, non-phosphorylated (ABL1, Homo sapiens, UniProt P00519, F317L)	94%
TSSK3 (Homo sapiens, UniProt Q96PN8)	57%

Study 3 — organism: Sarcocystis neurona; effect on: parasite growth; concentration: 10 µM; setting: secondary screen
SMILES	inhibition
CC1CCN(CCCC(=O)c2ccc(F)cc2)CC1.Cl	-33.9%
CC(C)(C)NC[C@H](O)COc1nsnc1N1CCOCC1	-41.5%
O=c1c(-c2ccccc2)c1-c1ccccc1	85.4%

Study 4 — cell line: HaCaT; concentration: 100 µM; time: 36 h
SMILES	viability
CCOc1ccc2nc3cc(N)ccc3c(N)c2c1	5.61%
CC1(C)S[C@@H]2[C@H](NC(=O)C(C(=O)O)c3ccccc3)C(=O)N2[C@H]1C(=O)O (some centres unmarked)	94.8%
Clc1ccc(CCC(Cn2ccnc2)Sc2c(Cl)cccc2Cl)cc1 (centres unmarked)	6.05%

Study 5 — species: human; medium: microsomes or S9; concentration: 2 µM; time: 0.5 h
Compound	remaining compound
CN(C(=O)CN(c1ccc(Cl)c(Cl)c1)S(=O)(=O)c1ccccc1)C(CN1CCCC1)c1ccc(-c2cccnc2)cc1 (centres unmarked)	16.2%
O=C(NC1CCN(Cc2ccc(OC3CCNCC3)c(Br)c2)CC1)c1cc2cc(Br)ccc2s1	> 99%
CC1(COc2ccccc2)CC(n2ccnc2)C(c2ccc(-c3ccccc3)cc2)=NO1 (centres unmarked)	65.9%

Repeated from above (study 2):
target	remaining binding
STK16 (Homo sapiens, UniProt O75716)	81%
PLK2 (Homo sapiens, UniProt Q9NYY3)	81%
